# Experimental data from different studies.
# Compare with care: the assays were run in different laboratories. ± marks the error that the study gave.
# Cell line: PC-3
SMILES,test,conditions,scale,endpoint,result
COc1cc(CNC(=O)C[C@H](C)CCC=C(C)C)ccc1OCc1cn(-c2ccc(Cl)cc2Cl)nn1,SRB,"10 µM, 48 h",,growth percent,85%
CC(=O)OCC1=CCC2[C@]3(C)COC(c4ccccc4)O[C@@H]3CC[C@@]2(C)[C@@H]1/C=C/C1=CCOC1=O (stereo partly shown),"cell growth or viability, MTT","20 µM, 48 h",,inhibition,29%
COc1cc(CNC(=O)C[C@H](C)CCC=C(C)C)ccc1OCc1cn(-c2cccc(Cl)c2)nn1,SRB,"10 µM, 48 h",,growth percent,76.3%
CC/C=C\C/C=C\C/C=C\C/C=C\C/C=C\C/C=C\CCC(=O)Nc1ccn(C2OC(CO)C(O)C2(F)F)c(=O)n1 (stereo not shown),"cell growth or viability, SRB",,,GI50,10700 nM
COC(C(=NOCC(=O)O)C(O)C(C)O)C1Cc2cc3cc(OC4CC(OC5CC(O)C(O)C(C)O5)C(O)C(C)O4)c(C)c(O)c3c(O)c2C(=O)C1OC1CC(OC2CC(OC3CC(C)(O)C(O)C(C)O3)C(O)C(C)O2)C(O)C(C)O1 (stereo not shown),cell growth or viability,72 h,,GI50,1810 nM
COc1cc(/C=C/C(=O)/C=C(O)/C=C/c2ccc(OCC(=O)N3CCOCCOCCOCCOCCOCC3)c(OC)c2)ccc1OCC(=O)N1CCOCCOCCOCCOCCOCC1,"cell growth or viability, SRB",5 µM,,inhibition,4.14%
COc1cc(CNC(=O)C[C@H](C)CCC=C(C)C)ccc1OCc1cn(-c2ccc(C#N)cc2)nn1,SRB,"10 µM, 48 h",,growth percent,68.2%
CC(=O)OC[C@H]1O[C@@H](Sc2sc(C(=O)c3ccc(C)cc3)c(N)c2-c2nc3ccccc3s2)[C@H](OC(C)=O)[C@@H](OC(C)=O)[C@H]1OC(C)=O,SRB,"10 µM, 48 h",baseline: untreated,growth,60.6%
CON=C(C(O)C(C)O)C(OC)C1Cc2cc3cc(OC4CC(OC5CC(O)C(O)C(C)O5)C(O)C(C)O4)c(C)c(O)c3c(O)c2C(=O)C1OC1CC(OC2CC(OC3CC(C)(O)C(O)C(C)O3)C(O)C(C)O2)C(O)C(C)O1 (stereo not shown),cell growth or viability,72 h,,GI50,226 nM
O=C(O)CCC(NP(=O)(O)OCCC[C@@H](NC(=O)CC[C@H](NC(=O)CCCCCNC(=O)c1ccc([18F])cc1)C(=O)O)C(=O)O)C(=O)O (stereo partly shown),,"concentration not given, 4 h",,cell uptake,0.04 ± 0.01%
COc1cc(CNC(=O)C[C@H](C)CCC=C(C)C)ccc1OCc1cn(-c2ccc(F)cc2)nn1,SRB,"10 µM, 48 h",,growth percent,80.2%
C[N+]1(CC(=O)OC2CCCCCCCCCCC2)CCCCC1,"cell viability, CellTiter Blue",96 h,,ED90,38600 nM
COc1cc(CNC(=O)C[C@H](C)CCC=C(C)C)ccc1OCc1cn(-c2ccccc2Cl)nn1,SRB,"10 µM, 48 h",,growth percent,49.4%
COC(C(=NO)C(O)C(C)O)C1Cc2cc3cc(OC4CC(OC5CC(O)C(O)C(C)O5)C(O)C(C)O4)c(C)c(O)c3c(O)c2C(=O)C1OC1CC(OC2CC(OC3CC(C)(O)C(O)C(C)O3)C(O)C(C)O2)C(O)C(C)O1 (stereo not shown),cell growth or viability,72 h,,GI50,518 nM
COc1cc(CNC(=O)C[C@H](C)CCC=C(C)C)ccc1OCc1cn(-c2ccccc2)nn1,SRB,"10 µM, 48 h",,growth percent,83.1%
CN(C)c1cccc2c(S(=O)(=O)NCCCCCC(=O)NO)cccc12,Western blot,concentration not given,,alpha-tubulin acetylation,increased
C=C1CC[C@@H]2[C@](C)(CO)[C@H](O)CC[C@@]2(C)[C@@H]1/C=C/C1=CCOC1=O,"cell growth or viability, MTT","20 µM, 48 h",,inhibition,0%
CCON=C(C(O)C(C)O)C(OC)C1Cc2cc3cc(OC4CC(OC5CC(O)C(O)C(C)O5)C(O)C(C)O4)c(C)c(O)c3c(O)c2C(=O)C1OC1CC(OC2CC(OC3CC(C)(O)C(O)C(C)O3)C(O)C(C)O2)C(O)C(C)O1 (stereo not shown),cell growth or viability,72 h,,GI50,114 nM
Cc1nn(-c2ccc(S(=O)(=O)N[C@H](CO)CC(C)C)cc2)c2nn3nnnc3nc12,MitoTracker Red,"2 µM, 24 h",baseline: untreated,mitochondrial membrane potential,58 ± 0.58%
COC(C(=NOCC(=O)NCCc1c[nH]c2ccccc12)C(O)C(C)O)C1Cc2cc3cc(OC4CC(OC5CC(O)C(O)C(C)O5)C(O)C(C)O4)c(C)c(O)c3c(O)c2C(=O)C1OC1CC(OC2CC(OC3CC(C)(O)C(O)C(C)O3)C(O)C(C)O2)C(O)C(C)O1 (stereo not shown),cell growth or viability,72 h,,GI50,1030 nM
C[C@]1(CO)C2CC[C@@]3(CO3)[C@@H](/C=C/C3=CCOC3=O)[C@]2(C)CC[C@H]1O (stereo partly shown),"cell growth or viability, MTT","20 µM, 48 h",,inhibition,0%
CSc1ccc(/C=C2/C(C)=C(CC(=O)NCCN(C)C)c3cc(F)ccc32)cc1,cell growth or viability,,,CC50,3120 nM
CCCCCCCCCCCCCCCC(=O)N=C(N)NCCC[C@H](NC(=O)[C@H](CC(C)C)NC(=O)[C@@H](CC(C)C)NC(=O)[C@H](Cc1ccc(O)cc1)NC(=O)[C@H](CO)NC(=O)[C@H](Cc1c[nH]c2ccccc12)NC(=O)[C@H](Cc1c[nH]cn1)NC(=O)[C@@H]1CCC(=O)N1)C(=O)N1CCC[C@H]1C(=O)NCC,WST-1,"50 µM, 4 days, 2D monolayer, daily dosing",baseline: control,cell proliferation,86.7%
CC(=O)OC[C@H]1O[C@@H](Sc2sc(C(=O)c3ccc(Br)cc3)c(N)c2-c2nc3ccccc3s2)[C@H](OC(C)=O)[C@@H](OC(C)=O)[C@H]1OC(C)=O,SRB,"10 µM, 48 h",baseline: untreated,growth,70.8%
COc1cc(CNC(=O)C[C@H](C)CCC=C(C)C)ccc1OCc1cn(-c2ccccc2F)nn1,SRB,"10 µM, 48 h",,growth percent,87.9%
CCCCCCCCCCCC1N=C(N)N=C(N)N1c1ccc(Cl)cc1.Cl (racemic),,concentration not given,,growth inhibition,≤ 100%
CC1=C(C2=C(C)C(=O)c3c(cc(O)c(O)c3Cc3ccccc3)C2=O)C(=O)c2cc(O)c(O)c(Cc3ccccc3)c2C1=O (racemic),"cell growth or viability, ATP luminescence",72 h,,EC50,300 nM
Cc1ccc(C(C)C)cc1.O=C([N-]c1nc2ccccc2s1)c1cnccn1.[Cl-].[Ru+2],"cytotoxicity, MTT",,baseline: KMST-6 over PC-3,selectivity index,> 2
COc1cc(/C=C/C(=O)/C=C(O)/C=C/c2ccc(OCC(=O)N3CCOCCOCCOCC3)c(OC)c2)ccc1OCC(=O)N1CCOCCOCCOCC1,"cell growth or viability, SRB",5 µM,,inhibition,11.4%
[Cl][Pd-2]1([Cl])[N+](=Cc2ccc[nH]2)Cc2cccc[n+]21,MTT,"100 µg/mL, 24 h",,viability reduction,> 80%
COC(C(=NOCc1ccc([N+](=O)[O-])cc1)C(O)C(C)O)C1Cc2cc3cc(OC4CC(OC5CC(O)C(O)C(C)O5)C(O)C(C)O4)c(C)c(O)c3c(O)c2C(=O)C1OC1CC(OC2CC(OC3CC(C)(O)C(O)C(C)O3)C(O)C(C)O2)C(O)C(C)O1 (stereo not shown),cell growth or viability,72 h,,GI50,113 nM
CC(C)C[C@H](NC(=O)C[C@H](O)[C@H](CC(C)C)NC(=O)[C@H](Cc1c[nH]cn1)NC(=O)CNC(=O)[C@@H](NC(=O)[C@H](C)NC(=O)[C@H](Cc1c[nH]c2ccccc12)NC(=O)[C@H](CCC(N)=O)NC(=O)[C@@H](Cc1ccccc1)NC(=O)CCOCCOCCOCCNC(=O)CN1CCN(CC(=O)O)CCN(CC(=O)O)CC1)C(C)C)C(N)=O [gallium-68 labelled],acid wash,"1 h, 37 °C",baseline: total uptake,internalized fraction,< 15%
COC(C(=NOCC(=O)Nc1cccnc1)C(O)C(C)O)C1Cc2cc3cc(OC4CC(OC5CC(O)C(O)C(C)O5)C(O)C(C)O4)c(C)c(O)c3c(O)c2C(=O)C1OC1CC(OC2CC(OC3CC(C)(O)C(O)C(C)O3)C(O)C(C)O2)C(O)C(C)O1 (stereo not shown),cell growth or viability,72 h,,GI50,185 nM
N=C(N)NCCC[C@@H]1NC(=O)[C@H](CCCCN)NC(=O)[C@@H](Cc2ccc(O)cc2)NC(=O)[C@H](CC(=O)O)NC(=O)CNC1=O,MTT,48 h,,total growth inhibition,> 100 µM
CCC(=C(c1ccc(Cl)cc1)c1ccc(OCCCN(C)C)cc1)c1ccc(OC)cc1,cell growth or viability,,,GI50,1120 nM
COC(C(=NOCc1ccccc1)C(O)C(C)O)C1Cc2cc3cc(OC4CC(OC5CC(O)C(O)C(C)O5)C(O)C(C)O4)c(C)c(O)c3c(O)c2C(=O)C1OC1CC(OC2CC(OC3CC(C)(O)C(O)C(C)O3)C(O)C(C)O2)C(O)C(C)O1 (stereo not shown),cell growth or viability,72 h,,GI50,120 nM
C=C1CC(OC(=O)C(C)(O)CCl)C2C(=C)C(=O)OC2C2C1CC(O)C2(O)CCl (stereo not shown),annexin V-FITC/PI,"concentration not given, 48 h",,apoptotic cells,91.5%

# For quick reference, copied from above:
SMILES,test,conditions,scale,endpoint,result
CC(C)C[C@H](NC(=O)C[C@H](O)[C@H](CC(C)C)NC(=O)[C@H](Cc1c[nH]cn1)NC(=O)CNC(=O)[C@@H](NC(=O)[C@H](C)NC(=O)[C@H](Cc1c[nH]c2ccccc12)NC(=O)[C@H](CCC(N)=O)NC(=O)[C@@H](Cc1ccccc1)NC(=O)CCOCCOCCOCCNC(=O)CN1CCN(CC(=O)O)CCN(CC(=O)O)CC1)C(C)C)C(N)=O [gallium-68 labelled],acid wash,"1 h, 37 °C",baseline: total uptake,internalized fraction,< 15%
COC(C(=NOCc1ccccc1)C(O)C(C)O)C1Cc2cc3cc(OC4CC(OC5CC(O)C(O)C(C)O5)C(O)C(C)O4)c(C)c(O)c3c(O)c2C(=O)C1OC1CC(OC2CC(OC3CC(C)(O)C(O)C(C)O3)C(O)C(C)O2)C(O)C(C)O1 (stereo not shown),cell growth or viability,72 h,,GI50,120 nM
CCC(=C(c1ccc(Cl)cc1)c1ccc(OCCCN(C)C)cc1)c1ccc(OC)cc1,cell growth or viability,,,GI50,1120 nM
O=C(O)CCC(NP(=O)(O)OCCC[C@@H](NC(=O)CC[C@H](NC(=O)CCCCCNC(=O)c1ccc([18F])cc1)C(=O)O)C(=O)O)C(=O)O (stereo partly shown),,"concentration not given, 4 h",,cell uptake,0.04 ± 0.01%
